# Measured values gathered from unrelated publications.
# Every numbered part comes from another study and shows a few of its results, in no order.
# Sequence of UniProt Q9UHD2 (whole entry, looked up): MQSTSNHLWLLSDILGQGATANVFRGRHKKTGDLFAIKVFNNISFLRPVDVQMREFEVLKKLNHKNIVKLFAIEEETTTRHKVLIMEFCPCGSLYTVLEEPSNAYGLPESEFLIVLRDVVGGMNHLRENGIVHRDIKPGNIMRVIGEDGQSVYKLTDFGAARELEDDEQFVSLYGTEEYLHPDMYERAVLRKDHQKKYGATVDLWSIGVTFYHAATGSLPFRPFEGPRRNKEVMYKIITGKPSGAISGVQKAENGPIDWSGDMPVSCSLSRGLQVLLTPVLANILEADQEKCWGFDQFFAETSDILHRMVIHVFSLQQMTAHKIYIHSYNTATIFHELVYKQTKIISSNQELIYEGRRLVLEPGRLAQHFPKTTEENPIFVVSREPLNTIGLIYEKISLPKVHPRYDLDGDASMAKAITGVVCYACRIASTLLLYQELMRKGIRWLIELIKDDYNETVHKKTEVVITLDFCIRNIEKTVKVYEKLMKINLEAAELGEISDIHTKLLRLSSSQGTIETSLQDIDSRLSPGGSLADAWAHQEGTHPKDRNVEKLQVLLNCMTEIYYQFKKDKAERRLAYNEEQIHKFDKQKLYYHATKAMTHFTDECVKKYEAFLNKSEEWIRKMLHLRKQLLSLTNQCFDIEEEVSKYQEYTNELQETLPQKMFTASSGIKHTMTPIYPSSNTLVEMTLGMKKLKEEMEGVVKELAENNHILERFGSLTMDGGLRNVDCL
# Sequence of UniProt Q9UL54 (whole entry, looked up): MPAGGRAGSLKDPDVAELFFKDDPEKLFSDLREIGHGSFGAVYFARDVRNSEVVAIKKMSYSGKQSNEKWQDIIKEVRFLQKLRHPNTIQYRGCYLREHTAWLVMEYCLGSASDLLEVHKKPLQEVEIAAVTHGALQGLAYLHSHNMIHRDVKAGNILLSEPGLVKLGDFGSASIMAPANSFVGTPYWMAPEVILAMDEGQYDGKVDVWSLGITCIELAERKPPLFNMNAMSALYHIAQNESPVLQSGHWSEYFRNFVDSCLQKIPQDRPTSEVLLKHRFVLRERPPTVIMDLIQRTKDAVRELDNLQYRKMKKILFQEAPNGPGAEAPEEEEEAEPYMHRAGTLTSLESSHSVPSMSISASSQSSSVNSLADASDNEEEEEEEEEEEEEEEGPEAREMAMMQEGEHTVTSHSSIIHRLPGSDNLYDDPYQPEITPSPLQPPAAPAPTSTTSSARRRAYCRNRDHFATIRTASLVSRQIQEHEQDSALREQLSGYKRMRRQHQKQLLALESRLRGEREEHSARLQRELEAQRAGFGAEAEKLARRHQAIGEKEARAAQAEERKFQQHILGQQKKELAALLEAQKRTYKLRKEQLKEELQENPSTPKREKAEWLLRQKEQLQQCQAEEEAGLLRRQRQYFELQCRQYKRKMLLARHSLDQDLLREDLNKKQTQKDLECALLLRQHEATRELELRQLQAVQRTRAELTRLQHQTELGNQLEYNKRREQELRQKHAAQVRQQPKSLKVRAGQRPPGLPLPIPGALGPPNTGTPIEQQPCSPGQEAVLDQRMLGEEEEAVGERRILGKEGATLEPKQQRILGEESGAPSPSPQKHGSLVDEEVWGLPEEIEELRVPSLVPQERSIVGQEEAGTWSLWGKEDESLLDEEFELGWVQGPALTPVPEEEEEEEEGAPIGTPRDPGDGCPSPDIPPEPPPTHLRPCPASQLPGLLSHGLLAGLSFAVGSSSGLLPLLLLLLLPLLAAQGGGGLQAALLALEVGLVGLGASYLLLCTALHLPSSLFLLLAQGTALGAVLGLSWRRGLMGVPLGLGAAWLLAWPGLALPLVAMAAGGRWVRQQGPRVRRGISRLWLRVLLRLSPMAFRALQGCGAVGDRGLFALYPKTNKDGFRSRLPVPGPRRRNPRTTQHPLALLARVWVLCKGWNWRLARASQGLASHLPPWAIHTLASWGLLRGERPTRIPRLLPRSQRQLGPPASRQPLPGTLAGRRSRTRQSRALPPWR
# Sequence of UniProt Q9Y2U5 (whole entry, looked up): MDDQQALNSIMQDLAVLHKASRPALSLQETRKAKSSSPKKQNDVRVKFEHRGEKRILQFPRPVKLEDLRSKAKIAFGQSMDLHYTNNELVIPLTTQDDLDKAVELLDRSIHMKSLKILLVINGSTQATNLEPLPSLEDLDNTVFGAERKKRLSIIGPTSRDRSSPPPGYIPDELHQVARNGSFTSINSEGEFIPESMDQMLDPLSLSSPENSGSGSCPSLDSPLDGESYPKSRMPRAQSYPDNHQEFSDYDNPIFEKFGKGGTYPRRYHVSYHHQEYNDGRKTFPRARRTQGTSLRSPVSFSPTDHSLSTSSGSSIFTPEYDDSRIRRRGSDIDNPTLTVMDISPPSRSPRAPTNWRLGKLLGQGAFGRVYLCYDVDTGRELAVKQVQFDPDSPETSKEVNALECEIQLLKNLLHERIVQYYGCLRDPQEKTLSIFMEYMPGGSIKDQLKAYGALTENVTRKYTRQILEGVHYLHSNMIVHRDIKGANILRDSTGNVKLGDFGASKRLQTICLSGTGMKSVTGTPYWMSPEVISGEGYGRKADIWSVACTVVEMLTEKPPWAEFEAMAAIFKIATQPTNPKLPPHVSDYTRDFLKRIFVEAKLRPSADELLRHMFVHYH
# Sequence of UniProt P06241 (whole entry, looked up): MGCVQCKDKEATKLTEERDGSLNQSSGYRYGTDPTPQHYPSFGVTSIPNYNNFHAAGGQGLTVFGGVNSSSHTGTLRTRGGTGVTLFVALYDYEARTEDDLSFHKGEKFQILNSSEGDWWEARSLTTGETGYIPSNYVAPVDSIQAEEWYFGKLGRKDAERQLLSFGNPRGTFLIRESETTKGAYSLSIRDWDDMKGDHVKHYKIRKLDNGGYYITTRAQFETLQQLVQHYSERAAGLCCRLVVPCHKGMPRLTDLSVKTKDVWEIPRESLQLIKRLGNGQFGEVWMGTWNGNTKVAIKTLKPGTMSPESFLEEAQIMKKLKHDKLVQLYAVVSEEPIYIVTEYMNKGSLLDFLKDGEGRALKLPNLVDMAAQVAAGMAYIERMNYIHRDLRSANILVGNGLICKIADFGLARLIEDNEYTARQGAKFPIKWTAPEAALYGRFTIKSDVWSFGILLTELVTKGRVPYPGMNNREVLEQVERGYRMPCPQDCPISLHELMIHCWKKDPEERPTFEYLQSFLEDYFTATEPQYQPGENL
# Sequence of UniProt O00506 (whole entry, looked up): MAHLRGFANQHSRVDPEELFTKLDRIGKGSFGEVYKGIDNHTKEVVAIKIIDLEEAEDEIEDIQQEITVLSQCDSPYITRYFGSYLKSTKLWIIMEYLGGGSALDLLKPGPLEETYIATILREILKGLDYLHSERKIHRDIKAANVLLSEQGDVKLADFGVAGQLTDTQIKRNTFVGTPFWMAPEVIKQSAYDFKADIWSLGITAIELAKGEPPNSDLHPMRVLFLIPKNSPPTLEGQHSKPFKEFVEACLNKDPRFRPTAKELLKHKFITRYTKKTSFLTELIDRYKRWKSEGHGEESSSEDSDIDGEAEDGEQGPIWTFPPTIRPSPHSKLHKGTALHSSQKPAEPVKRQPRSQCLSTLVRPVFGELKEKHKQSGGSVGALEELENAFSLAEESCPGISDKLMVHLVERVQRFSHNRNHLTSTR
# Sequence of UniProt Q9P289 (whole entry, looked up): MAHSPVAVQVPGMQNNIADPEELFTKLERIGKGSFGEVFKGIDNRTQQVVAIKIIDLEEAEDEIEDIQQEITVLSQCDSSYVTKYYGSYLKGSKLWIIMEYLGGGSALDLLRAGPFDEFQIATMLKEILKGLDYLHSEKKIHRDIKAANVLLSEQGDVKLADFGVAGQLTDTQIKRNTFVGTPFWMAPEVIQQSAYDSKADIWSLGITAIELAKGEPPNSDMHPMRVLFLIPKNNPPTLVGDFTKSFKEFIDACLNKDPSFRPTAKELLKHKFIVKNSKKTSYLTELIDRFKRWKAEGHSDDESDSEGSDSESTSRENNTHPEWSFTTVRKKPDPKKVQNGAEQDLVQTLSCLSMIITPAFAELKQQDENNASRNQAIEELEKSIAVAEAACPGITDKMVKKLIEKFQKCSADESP
# Sequence of UniProt P37173 (whole entry, looked up): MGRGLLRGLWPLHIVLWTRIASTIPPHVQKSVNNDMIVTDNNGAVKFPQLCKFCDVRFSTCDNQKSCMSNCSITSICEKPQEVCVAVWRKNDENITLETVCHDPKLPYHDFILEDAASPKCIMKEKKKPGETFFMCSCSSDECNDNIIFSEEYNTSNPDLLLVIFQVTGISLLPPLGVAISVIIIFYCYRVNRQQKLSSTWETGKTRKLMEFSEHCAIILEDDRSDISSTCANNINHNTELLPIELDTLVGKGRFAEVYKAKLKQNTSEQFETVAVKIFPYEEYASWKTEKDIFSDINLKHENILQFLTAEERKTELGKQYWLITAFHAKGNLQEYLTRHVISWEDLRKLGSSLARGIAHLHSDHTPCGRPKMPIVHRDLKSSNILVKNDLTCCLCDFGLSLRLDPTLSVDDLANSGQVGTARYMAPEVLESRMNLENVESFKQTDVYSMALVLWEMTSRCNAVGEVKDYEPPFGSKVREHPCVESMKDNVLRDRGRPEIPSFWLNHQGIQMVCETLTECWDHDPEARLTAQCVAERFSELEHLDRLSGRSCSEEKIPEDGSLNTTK
# Sequence of UniProt Q9BYT3 (whole entry, looked up): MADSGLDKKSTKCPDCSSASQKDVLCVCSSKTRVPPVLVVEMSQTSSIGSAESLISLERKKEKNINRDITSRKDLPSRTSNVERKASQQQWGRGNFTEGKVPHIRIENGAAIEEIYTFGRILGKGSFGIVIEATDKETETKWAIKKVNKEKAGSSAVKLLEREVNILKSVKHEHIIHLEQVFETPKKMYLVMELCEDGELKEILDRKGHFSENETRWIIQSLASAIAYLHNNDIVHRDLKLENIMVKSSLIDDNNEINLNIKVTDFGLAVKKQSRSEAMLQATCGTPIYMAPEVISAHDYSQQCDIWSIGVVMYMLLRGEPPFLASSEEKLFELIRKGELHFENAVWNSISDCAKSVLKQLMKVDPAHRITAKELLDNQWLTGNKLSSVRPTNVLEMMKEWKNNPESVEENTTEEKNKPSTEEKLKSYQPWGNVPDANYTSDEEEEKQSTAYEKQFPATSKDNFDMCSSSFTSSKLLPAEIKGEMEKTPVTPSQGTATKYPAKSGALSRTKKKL

# Block 1 — effect on: enzyme activity; mode: inhibitor; concentration: 0.5 µM; reference: control
# Target: Testis-specific serine/threonine-protein kinase 1 (TSSK1B, Homo sapiens, UniProt Q9BXA7)
# Construct (Q9BXA7 1-367): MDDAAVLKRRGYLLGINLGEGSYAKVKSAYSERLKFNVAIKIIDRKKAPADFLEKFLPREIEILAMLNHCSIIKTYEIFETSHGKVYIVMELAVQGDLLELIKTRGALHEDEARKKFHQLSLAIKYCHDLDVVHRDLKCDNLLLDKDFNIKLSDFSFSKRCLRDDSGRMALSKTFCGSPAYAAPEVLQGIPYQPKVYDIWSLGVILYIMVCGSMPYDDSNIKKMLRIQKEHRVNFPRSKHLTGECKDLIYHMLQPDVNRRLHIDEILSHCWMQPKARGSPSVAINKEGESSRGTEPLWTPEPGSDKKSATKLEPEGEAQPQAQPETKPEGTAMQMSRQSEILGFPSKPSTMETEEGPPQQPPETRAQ
Structure (SMILES),remaining activity [%]
COc1cc2c(N3CCN(C(=O)Nc4ccc(OC(C)C)cc4)CC3)ncnc2cc1OCCCN1CCCCC1,96.8
c1cc(-c2cnn3cc(-c4ccc(OCCN5CCCCC5)cc4)cnc23)ccn1,81.1
Nc1nc(Nc2ccc(S(N)(=O)=O)cc2)nn1C(=S)Nc1c(F)cccc1F,13.7
CC(C)n1cnc2c(Nc3cccc(Cl)c3)nc(NCCO)nc21,91.9
O=C1c2ccccc2-c2nc3nnnn3nc21,88.7
N#C/C(=C(/N)SC1C=CC=CC1)c1cccc(C(O)c2ccncc2)c1 (stereo not drawn),94
O=C1NC(=O)/C(=C/c2ccc3c(c2)OC(F)(F)O3)S1,93.3
CC(C)N(CCC(=O)c1ccc2ccccc2c1)Cc1ccccc1,100
O=C(O)/C=C/c1cc(Br)c(Br)c(Br)c1Br,79.2
O=Nc1c(-c2c(O)[nH]c3ccccc23)[nH]c2ccccc12,86
N#CC(c1ccnc(NCCc2cccnc2)n1)c1nc2ccccc2s1 (stereo not drawn),99
C[C@@H](N)[C@H]1CC[C@H](C(=O)Nc2ccncc2)CC1,103
CNc1cc2c(Nc3cccc(Br)c3)ncnc2cn1,60.2
O=c1c(-c2ccc(F)cc2)c(-c2ccncc2)[nH]n1-c1ccc(Cl)cc1,76.2

# Block 2 — cell line: A-375; concentration: 100 µM; time: 18 h
Structure (SMILES),viability
CC(C)(CO)C(O)C(=O)NCCCO (stereo not drawn),69.1%
Cc1cnc(NC(=O)C2=C(O)c3ccccc3S(=O)(=O)N2C)s1,79%
NC(CO)C(=O)NNCc1ccc(O)c(O)c1O (stereo not drawn),50.8%
CN1CCOC(c2ccccc2)c2ccccc2C1 (stereo not drawn),91.8%
CN(C)CCOC(C)(c1ccccc1)c1ccccn1 (stereo not drawn),43.7%
NC1C(O)O[C@H](CO)C(O[C@@H]2O[C@H](CO)C(O[C@@H]3O[C@H](CO)[C@@H](O)[C@H](O)[C@H]3N)[C@H](O)C2N)C1O (stereo partly drawn),101%
OC[C@@H](O)[C@@H](O)[C@H](O)[C@@H](O)CO,106%
C[n+]1cc2c3c(ccc2c2ccc4cc5c(cc4c21)OCO5)OCO3,9.47%
CC(=O)c1ccc(O)c(C(=O)O)c1,108%
OC[C@@H](O)[C@H](O)[C@@H](O)CO,96.5%
O=C(Nc1ccc([N+](=O)[O-])cc1Cl)c1cc(Cl)ccc1O,45.2%
COc1ccc(C(Cl)=C(c2ccc(OC)cc2)c2ccc(OC)cc2)cc1,89.2%
CS(=O)(=O)OCCCCOS(C)(=O)=O,97.7%

# Block 3 — species: mouse; medium: microsomes or S9; concentration: 2 µM; time: 0.5 h
Compound,remaining compound [%]
[O-][S+](Cc1ccn(Cc2ccccc2Cl)n1)c1nc2cc(Cl)ccc2[nH]1 (stereo not drawn),8.24
Cc1n[nH]c(C)c1Sc1ccccc1-n1cnnc1,48.4
CCN1CCCCC1CNc1nccc(-c2ccc(C)nc2C)n1 (stereo not drawn),20.4
CC(=O)N[C@@H]1CN(C(=O)c2nc3cc(C)ccn3c2F)C[C@H]1c1ccc(C)o1,65.5
CC(C)c1nc2c(c(OC3CCCN(S(=O)(=O)c4cccs4)C3)n1)CCOCC2 (stereo not drawn),0.0309
CCOc1cc(C#N)ccc1OCc1nc(-c2cccs2)no1,66.8
CCc1cc(N2CC[C@H](F)C2)n2nc(C)c(C)c2n1,26.1
Cc1ccsc1-c1cn(C(C(=O)N(C)C)c2ccccc2)nn1 (stereo not drawn),3.11
COc1ccc(-c2noc(Cn3cnc4c(cnn4-c4ccc(Cl)cc4)c3=O)n2)cc1,81
O=c1[nH]c(O)ncc1S(=O)(=O)Nc1cccc2ccccc12,54.5

# Block 4 — effect on: cell-free assay; method: competition with immobilised ligand; concentration: 1 µM
# Compound: CO[C@H]1CC[C@H](CNc2ccc(S(=O)(=O)NC(=O)c3ccc(N4CCN(CC5=C(c6ccc(Cl)cc6)CC(C)(C)CC5)CC4)cc3Oc3cnc4[nH]ccc4c3)cc2[N+](=O)[O-])CC1
target,remaining binding
"TAOK2 (Homo sapiens, UniProt Q9UL54)",86%
"STK26 (Homo sapiens, UniProt Q9P289)",97%
"IRAK1 (Homo sapiens, UniProt P51617)",96%
"FYN (Homo sapiens, UniProt P06241)",97%
"STK33 (Homo sapiens, UniProt Q9BYT3)",100%
"STK25 (Homo sapiens, UniProt O00506)",83%
"MAP3K2 (Homo sapiens, UniProt Q9Y2U5)",68%
"FGFR3 (Homo sapiens, UniProt P22607, G697C)",100%
"TLK1 (Homo sapiens, UniProt Q9UKI8)",82%
"TBK1 (Homo sapiens, UniProt Q9UHD2)",60%
"TGFBR2 (Homo sapiens, UniProt P37173)",74%

# Repeated from above (block 3):
Compound,remaining compound [%]
[O-][S+](Cc1ccn(Cc2ccccc2Cl)n1)c1nc2cc(Cl)ccc2[nH]1 (stereo not drawn),8.24
Cc1n[nH]c(C)c1Sc1ccccc1-n1cnnc1,48.4
CCN1CCCCC1CNc1nccc(-c2ccc(C)nc2C)n1 (stereo not drawn),20.4
CC(=O)N[C@@H]1CN(C(=O)c2nc3cc(C)ccn3c2F)C[C@H]1c1ccc(C)o1,65.5
CC(C)c1nc2c(c(OC3CCCN(S(=O)(=O)c4cccs4)C3)n1)CCOCC2 (stereo not drawn),0.0309
CCOc1cc(C#N)ccc1OCc1nc(-c2cccs2)no1,66.8
CCc1cc(N2CC[C@H](F)C2)n2nc(C)c(C)c2n1,26.1
